Measured values pooled from the literature.
Lines come from different studies, so protocols differ. Several values in a cell are separate wells, animals, samples, runs or records. Numbers after ± are the reported error.
PDIA3: Protein disulfide-isomerase A3 (PDIA3, Homo sapiens, UniProt P30101)
UniProt P30101, sequence (whole entry, looked up): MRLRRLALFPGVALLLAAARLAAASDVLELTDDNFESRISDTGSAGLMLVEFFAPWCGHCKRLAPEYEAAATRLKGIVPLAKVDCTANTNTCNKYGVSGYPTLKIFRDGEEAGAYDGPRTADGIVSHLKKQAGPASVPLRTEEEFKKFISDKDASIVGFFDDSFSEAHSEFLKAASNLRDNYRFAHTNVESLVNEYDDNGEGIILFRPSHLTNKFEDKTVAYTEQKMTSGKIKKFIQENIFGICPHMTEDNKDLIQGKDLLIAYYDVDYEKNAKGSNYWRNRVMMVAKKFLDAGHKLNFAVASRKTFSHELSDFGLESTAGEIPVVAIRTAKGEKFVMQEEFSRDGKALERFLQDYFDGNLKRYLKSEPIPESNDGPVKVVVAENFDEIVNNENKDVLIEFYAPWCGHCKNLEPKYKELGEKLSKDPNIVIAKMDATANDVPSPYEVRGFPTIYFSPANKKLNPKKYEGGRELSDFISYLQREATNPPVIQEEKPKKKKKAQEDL
ABCB1: ATP-dependent translocase ABCB1 (ABCB1, Homo sapiens, UniProt P08183)
UniProt P08183, sequence (whole entry, looked up): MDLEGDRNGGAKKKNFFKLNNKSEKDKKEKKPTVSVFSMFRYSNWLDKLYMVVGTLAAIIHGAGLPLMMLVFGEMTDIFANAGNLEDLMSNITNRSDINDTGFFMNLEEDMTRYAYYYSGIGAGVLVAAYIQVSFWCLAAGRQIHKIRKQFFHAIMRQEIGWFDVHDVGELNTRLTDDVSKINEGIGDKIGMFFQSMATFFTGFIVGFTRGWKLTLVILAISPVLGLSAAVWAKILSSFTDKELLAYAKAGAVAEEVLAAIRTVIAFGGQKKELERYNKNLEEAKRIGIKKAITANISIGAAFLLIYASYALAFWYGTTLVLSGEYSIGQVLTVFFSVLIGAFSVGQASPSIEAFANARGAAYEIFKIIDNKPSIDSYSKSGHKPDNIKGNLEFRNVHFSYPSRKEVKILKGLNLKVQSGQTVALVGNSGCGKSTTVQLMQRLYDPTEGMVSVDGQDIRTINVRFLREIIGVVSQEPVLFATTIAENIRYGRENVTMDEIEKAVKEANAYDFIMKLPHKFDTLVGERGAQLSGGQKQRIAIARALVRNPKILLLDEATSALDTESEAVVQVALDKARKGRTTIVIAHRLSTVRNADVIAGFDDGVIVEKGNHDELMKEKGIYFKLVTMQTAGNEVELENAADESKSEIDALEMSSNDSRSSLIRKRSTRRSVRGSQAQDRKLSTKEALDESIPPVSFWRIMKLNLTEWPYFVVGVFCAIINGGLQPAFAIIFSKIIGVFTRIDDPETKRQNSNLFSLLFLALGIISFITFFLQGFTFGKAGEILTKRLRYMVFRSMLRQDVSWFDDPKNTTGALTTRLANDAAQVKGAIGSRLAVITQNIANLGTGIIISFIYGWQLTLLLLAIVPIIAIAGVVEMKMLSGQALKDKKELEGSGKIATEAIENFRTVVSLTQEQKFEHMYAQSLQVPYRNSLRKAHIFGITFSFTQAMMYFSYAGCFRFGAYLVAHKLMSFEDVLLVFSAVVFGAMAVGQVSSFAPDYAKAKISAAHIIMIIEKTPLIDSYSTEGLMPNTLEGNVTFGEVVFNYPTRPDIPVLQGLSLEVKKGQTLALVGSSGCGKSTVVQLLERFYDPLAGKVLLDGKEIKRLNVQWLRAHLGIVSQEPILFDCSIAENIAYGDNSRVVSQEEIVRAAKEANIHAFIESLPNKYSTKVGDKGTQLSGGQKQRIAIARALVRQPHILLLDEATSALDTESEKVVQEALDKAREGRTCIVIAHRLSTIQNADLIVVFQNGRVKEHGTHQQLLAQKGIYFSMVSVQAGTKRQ
KLRK1 with MICA: NKG2-D type II integral membrane protein, with MICA (KLRK1, Homo sapiens, UniProt P26718)
UniProt P40261, sequence (whole entry, looked up): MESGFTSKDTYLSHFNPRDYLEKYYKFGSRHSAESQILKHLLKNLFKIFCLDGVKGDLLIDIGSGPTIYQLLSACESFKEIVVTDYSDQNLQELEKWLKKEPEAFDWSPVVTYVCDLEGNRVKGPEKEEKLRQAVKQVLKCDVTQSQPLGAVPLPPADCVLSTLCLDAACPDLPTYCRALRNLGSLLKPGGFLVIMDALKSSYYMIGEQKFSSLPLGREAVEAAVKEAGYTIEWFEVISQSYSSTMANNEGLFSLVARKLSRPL
UniProt P26718, sequence (whole entry, looked up): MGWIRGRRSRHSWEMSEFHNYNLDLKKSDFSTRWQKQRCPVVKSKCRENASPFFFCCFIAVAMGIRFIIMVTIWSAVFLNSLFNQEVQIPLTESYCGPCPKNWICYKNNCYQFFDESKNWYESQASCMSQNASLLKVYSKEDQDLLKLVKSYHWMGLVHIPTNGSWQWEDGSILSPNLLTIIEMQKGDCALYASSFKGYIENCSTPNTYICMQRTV
UniProt O75884, sequence (whole entry, looked up): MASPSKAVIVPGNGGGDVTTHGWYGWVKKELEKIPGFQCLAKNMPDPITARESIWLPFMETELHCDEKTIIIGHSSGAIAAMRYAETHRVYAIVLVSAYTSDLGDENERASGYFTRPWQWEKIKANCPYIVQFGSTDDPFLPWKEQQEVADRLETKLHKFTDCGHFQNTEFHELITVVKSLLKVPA
UniProt P28074, sequence (whole entry, looked up): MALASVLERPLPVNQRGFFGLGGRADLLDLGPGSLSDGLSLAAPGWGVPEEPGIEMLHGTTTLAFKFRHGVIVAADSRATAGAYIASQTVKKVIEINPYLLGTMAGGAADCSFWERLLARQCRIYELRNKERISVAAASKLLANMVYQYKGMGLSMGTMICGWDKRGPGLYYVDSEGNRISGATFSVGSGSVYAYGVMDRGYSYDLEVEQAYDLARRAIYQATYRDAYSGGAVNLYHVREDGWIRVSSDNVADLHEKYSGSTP
UniProt P34897, sequence (whole entry, looked up): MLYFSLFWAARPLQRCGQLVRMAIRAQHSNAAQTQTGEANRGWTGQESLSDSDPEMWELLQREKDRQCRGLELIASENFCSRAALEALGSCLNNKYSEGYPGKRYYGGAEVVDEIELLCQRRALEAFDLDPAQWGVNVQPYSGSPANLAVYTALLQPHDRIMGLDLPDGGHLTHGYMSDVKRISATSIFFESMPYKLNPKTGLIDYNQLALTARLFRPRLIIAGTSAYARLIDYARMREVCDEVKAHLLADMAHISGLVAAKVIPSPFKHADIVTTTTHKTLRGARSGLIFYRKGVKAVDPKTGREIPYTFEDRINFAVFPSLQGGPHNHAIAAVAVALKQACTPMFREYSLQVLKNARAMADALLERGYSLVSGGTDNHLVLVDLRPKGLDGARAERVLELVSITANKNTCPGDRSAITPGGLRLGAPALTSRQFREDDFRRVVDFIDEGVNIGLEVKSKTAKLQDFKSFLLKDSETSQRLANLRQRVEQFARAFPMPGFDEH
UniProt P63104, sequence (whole entry, looked up): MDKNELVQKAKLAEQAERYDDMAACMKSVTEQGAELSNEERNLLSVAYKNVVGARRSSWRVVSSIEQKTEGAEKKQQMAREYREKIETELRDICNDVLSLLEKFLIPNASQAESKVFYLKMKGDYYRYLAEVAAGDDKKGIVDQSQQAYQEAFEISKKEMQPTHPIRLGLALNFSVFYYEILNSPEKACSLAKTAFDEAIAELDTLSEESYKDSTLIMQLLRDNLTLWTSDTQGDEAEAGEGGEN
UniProt Q03431, sequence (whole entry, looked up): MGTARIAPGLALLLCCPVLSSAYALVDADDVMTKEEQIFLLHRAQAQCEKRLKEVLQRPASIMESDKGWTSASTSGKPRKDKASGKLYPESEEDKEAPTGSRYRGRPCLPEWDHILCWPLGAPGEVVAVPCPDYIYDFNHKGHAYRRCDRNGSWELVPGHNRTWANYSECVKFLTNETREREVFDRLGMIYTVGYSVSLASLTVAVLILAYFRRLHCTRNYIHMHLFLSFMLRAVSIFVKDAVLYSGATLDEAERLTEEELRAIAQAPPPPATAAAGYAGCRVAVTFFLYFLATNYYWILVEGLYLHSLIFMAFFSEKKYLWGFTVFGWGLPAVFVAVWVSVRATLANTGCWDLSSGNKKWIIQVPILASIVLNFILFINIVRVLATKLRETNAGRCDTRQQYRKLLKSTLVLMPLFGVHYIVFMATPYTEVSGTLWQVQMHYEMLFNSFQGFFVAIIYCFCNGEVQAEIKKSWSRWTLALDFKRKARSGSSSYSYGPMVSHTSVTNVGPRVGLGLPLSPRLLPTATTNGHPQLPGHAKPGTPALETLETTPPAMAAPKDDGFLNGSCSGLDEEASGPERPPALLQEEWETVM
UniProt C7C422, sequence (whole entry, looked up): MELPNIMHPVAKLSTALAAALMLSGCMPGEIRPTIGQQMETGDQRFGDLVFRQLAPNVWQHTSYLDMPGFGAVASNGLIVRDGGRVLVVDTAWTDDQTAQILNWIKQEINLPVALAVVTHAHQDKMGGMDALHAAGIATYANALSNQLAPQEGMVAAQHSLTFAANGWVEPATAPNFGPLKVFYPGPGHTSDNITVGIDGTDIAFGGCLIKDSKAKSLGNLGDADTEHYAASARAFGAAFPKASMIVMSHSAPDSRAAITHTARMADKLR
UniProt P10632, sequence (whole entry, looked up): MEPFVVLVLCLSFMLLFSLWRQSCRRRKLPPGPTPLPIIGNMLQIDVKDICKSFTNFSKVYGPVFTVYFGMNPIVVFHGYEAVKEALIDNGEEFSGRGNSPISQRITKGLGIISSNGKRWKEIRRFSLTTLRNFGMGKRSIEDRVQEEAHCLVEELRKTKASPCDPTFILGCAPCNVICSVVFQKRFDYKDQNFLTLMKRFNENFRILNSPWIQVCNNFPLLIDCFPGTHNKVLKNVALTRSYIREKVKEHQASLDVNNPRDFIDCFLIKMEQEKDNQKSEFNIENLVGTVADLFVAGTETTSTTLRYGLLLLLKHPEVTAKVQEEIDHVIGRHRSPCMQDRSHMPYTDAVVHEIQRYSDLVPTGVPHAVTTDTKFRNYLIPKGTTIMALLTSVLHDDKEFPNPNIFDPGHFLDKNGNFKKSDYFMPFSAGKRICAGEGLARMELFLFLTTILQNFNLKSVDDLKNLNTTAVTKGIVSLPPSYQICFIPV

For `C[C@H]1NC(=O)C[C@@H](C(=O)O)NC(=O)C[C@@H](C(=O)O)NC(=O)[C@H](Cc2ccccc2)N(C)C(=O)[C@H](CCCNC(=N)N)NC1=O`, the IC50 was over 1000 µM (Endochitinase B1 (Aspergillus fumigatus, UniProt Q873X9); enzyme activity, inhibitor, fluorometric; 10 min, pH 5.5, 37 °C, together with: 20 µM 4-MU-chitobiose).
For `COC(=O)C1CN1S(=O)(=O)c1cccc2ccccc12` (centres unmarked), the IC50 was 93 µM (PDIA3; enzyme activity, inhibitor, absorbance; pH 7.6).
With `CC[C@H](C)[C@@H]1NC(=O)CNC(=O)[C@H](Cc2ccccc2)NC(=O)[C@H](C)NC(=O)[C@H](CCCCN)NC(=O)[C@@H]2CCCN2C(=O)[C@@H](Cc2ccc(O)cc2)NC(=O)CSC[C@@H](C(=O)NCC(N)=O)NC(=O)[C@H](CC(C)C)NC(=O)[C@H](CC(C)C)NC(=O)[C@H](CC(C)C)NC(=O)[C@H](Cc2ccccc2)NC(=O)[C@H](CCCNC(=N)N)NC(=O)[C@H](CC(=O)O)NC(=O)[C@H](CCCNC(=N)N)NC(=O)[C@H](Cc2ccccc2)NC(=O)[C@H](CCCCN)NC1=O` the IC50 was 6.24 µM and ~5 µM (NNMT (Homo sapiens, UniProt P40261); enzyme activity, inhibitor, mass spectrometry).
For `NC(=O)c1cccc(CCN(CC[C@H](N)C(=O)O)C[C@H]2O[C@@H](n3cnc4c(N)ncnc43)[C@H](O)[C@@H]2O)c1`, the IC50 was 23 µM (Actin-histidine N-methyltransferase (SETD3, Homo sapiens, UniProt Q86TU7); enzyme activity, inhibitor, radiometric).
With `CC(C)C(=O)Nc1cccc(-c2nn[nH]n2)c1` the IC50 was over 100 µM (blaNDM-1 (Klebsiella pneumoniae, UniProt C7C422); enzyme activity, inhibitor, fluorescence; with preincubation).
The IC50 of `CC(=O)CCC1C(=O)NC(C(C)C)C(=O)NC(Cc2cc(O)cc(F)c2)C(=O)N2CCCC(N2)C(=O)OC(C(C)=CC=CC(=O)N2CCCCO2)CC=CC=CC(O)C(C)C1O` (centres unmarked) is reported as over 50 µM (ABCB1; P-glycoprotein transport, inhibitor; MDR1-MDCK; 60 min, pH 7.4, together with: loperamide 5 µM).
With `CSc1nc2[nH]nc([N+](=O)[O-])c(=O)n2n1` the IC50 was 72 µM (ABCB1; transport, inhibitor).
`C=C(C)C1CCc2c(c(C)cc(O)c(=O)c2O)C1` (centres unmarked) gave an IC50 of 1.7 µM (Dimer of Gag-Pol polyprotein, RT RNase H domain (Human immunodeficiency virus 2, UniProt P04584); RNase H activity, inhibitor).
With `CNC(=O)C1CCN(c2ccccc2NC(=O)c2ccc(-c3cc(O)ccc3C)c(C)n2)CC1` the IC50 was 0.0052 µM (EPHB2 (Homo sapiens, UniProt P29323); target engagement in cells, BRET).
For `CC[C@H](C)[C@H](NC(=O)[C@H](CCC(=O)O)NC(=O)[C@H](CO)NC(=O)[C@@H](NC(=O)[C@@H](N)CO)C(C)C)C(=O)N[C@@H](CCC(N)=O)C(=O)N[C@@H](CC(C)C)C(=O)N[C@@H](CCSC)C(=O)N[C@@H](C)C(=O)N[C@@H](CC(N)=O)C(=O)N[C@@H](CC(C)C)C(=O)NCC(=O)N[C@@H](CCCCN)C(=O)N[C@@H](Cc1c[nH]cn1)C(=O)N[C@@H](CC(C)C)C(=O)N[C@@H](CC(N)=O)C(=O)N[C@@H](CO)C(=O)N[C@@H](CCSC)C(=O)N[C@@H](CCC(=O)O)C(=O)N[C@@H](CCCNC(=N)N)C(=O)N[C@H](C(=O)N[C@@H](CCC(=O)O)C(=O)N[C@@H](Cc1c[nH]c2ccccc12)C(=O)N[C@@H](CC(C)C)C(=O)N[C@@H](CCCNC(=N)N)C(=O)N[C@@H](CCCCN)C(=O)N[C@@H](CCCCN)C(=O)N[C@@H](CC(C)C)C(=O)N[C@@H](CCC(N)=O)C(=O)N[C@@H](CC(=O)O)C(=O)N[C@H](C(=O)N[C@@H](Cc1c[nH]cn1)C(=O)N[C@@H](CC(N)=O)C(=O)N[C@@H](Cc1ccccc1)C(N)=O)C(C)C)C(C)C`, the IC50 was 0.0137 µM (PTH1R (Homo sapiens, UniProt Q03431); ligand displacement, radioligand; cell membranes).
The IC50 of `N#C[C@@H]1CCCN1C(=O)[C@@H](N)Cc1cccc2ccccc12` is reported as 0.88 µM (Serine hydrolase RBBP9 (Homo sapiens, UniProt O75884); enzyme activity, inhibitor).
`C[C@@H](O)[C@H](NC(=O)[C@H](CCCCN)NC(=O)COCCN)C(=O)N[C@@H](CCCNC(=N)N)C(=O)NC(C)(C)C(=O)N[C@@H](CCCNC(=N)N)C(=O)NC(C)(C)C(=O)N[C@H](C(=O)N[C@@H](CO)C(=O)N[C@@H](Cc1c[nH]cn1)C(=O)N[C@@H](Cc1ccc(O)cc1)C(=O)NCC(=O)O)[C@@H](C)O` gave an IC50 of 0.00015 µM (Integrin alpha-2, with integrin beta-1 (Homo sapiens, UniProt P17301); K562 expressing integrin α2; 60 min, 37 °C).
The IC50 of `CC(C)[C@H](NC(=O)N[C@H](C(=O)N[C@H]1/C=C/CCNC(=O)/C=C/[C@H](C(C)C)NC1=O)C(C)C)C(=O)O` is reported as 0.18 µM (PSMB5 (Homo sapiens, UniProt P28074); chymotrypsin-like activity, inhibitor; human constitutive proteasome; together with: Suc-LLVY-AMC).
The IC50 of `CC1(C)C=Cc2c(cc(O)c3c(=O)cc(-c4ccccc4)oc23)O1` is reported as 70.3 ± 2.8 µM (APP (Homo sapiens, UniProt P05067)).
`CC(=O)N[C@@H](CCCNC(=N)N)C(=O)N[C@H](C(=O)N1CCC[C@H]1C(=O)N[C@@H](COP(=O)(O)O)C(=O)N[C@@H](CC(C)C)C(=O)N1CCC[C@H]1C(=O)N[C@H](C(=O)N1CCC[C@H]1C(c1ccccc1)c1ccccc1)[C@@H](C)O)[C@@H](C)O` has an IC50 of 8.1 µM (YWHAZ (Homo sapiens, UniProt P63104); peptide binding, inhibitor, competitive fluorescence polarization; 10 µM protein, together with: 100 nM FAM-labelled diphosphorylated Tau peptide).
For `COc1ccccc1[C@@H](NS(=O)(=O)c1cc2ccc(O)nc2cc1Cl)C(=O)N(CC(=O)NCCn1cc(COCCOCC(=O)N[C@H](C(=O)N2C[C@H](O)C[C@H]2C(=O)NCc2ccc(-c3scnc3C)cc2)C(C)(C)C)nn1)Cc1cccs1`, the IC50 was 1.14 µM (OGT (Homo sapiens, UniProt O15294); enzyme activity, inhibitor, fluorescence).
`COC(=O)C1CN1S(=O)(=O)c1ccc(C)cc1` (centres unmarked) gave an IC50 of 28 µM (PDIA3; enzyme activity, inhibitor, absorbance; pH 7.6).
For `C[C@H](CCC(=O)NCCC(=O)O)[C@H]1CC[C@H]2[C@@H]3CC[C@@H]4C[C@H](O)CC[C@]4(C)[C@H]3C[C@H](O)[C@]12C`, the IC50 was 0.24 µM (SHMT2 (Homo sapiens, UniProt P34897); serine to glycine conversion, inhibitor; pH 7.5, 1% DMSO, together with: L-serine 1 mM, THF 0.2 mM).
For `CN(C)C(=O)[C@@H](NC(=O)c1cnccc1-c1ccc(C(F)(F)F)cc1)c1cccc(C(F)(F)F)c1`, the IC50 was 0.4 ± 0.1 µM (KLRK1 with MICA; ligand binding, inhibitor, TR-FRET; HEK293 expressing NKG2D and DAP10; together with: MICA-Alexa647).
`CCC12C=CCN3CCC4(c5ccc(OC)cc5N(C)C4C(O)(C(=O)OC)C1O)C32` (centres unmarked) has an IC50 of 41.4 µM (NR1I2 (Homo sapiens, UniProt O75469)).
For `CC(C)C[C@H](NC(=O)[C@@H]1CCCN1)C(=O)N1CCC[C@H]1C(=O)N[C@@H](Cc1c[nH]c2ccccc12)C(=O)O`, the IC50 was 442 µM (DPP4 (Homo sapiens, UniProt P27487); enzyme activity, inhibitor, absorbance).
`CN(C)C(=O)[C@H](NC(=O)c1ccccc1-c1ccc(C(F)(F)F)cc1)c1cccc(C(F)(F)F)c1` gave an IC50 of over 20 µM (KLRK1 with MICA).
`CN[C@H](CC(C)C)C(=O)N[C@H]1C(=O)N[C@@H](CC(N)=O)C(=O)N[C@H]2C(=O)N[C@H]3C(=O)N[C@H](C(=O)N[C@H](C(=O)O)c4cc(O)cc(O)c4-c4cc3ccc4O)[C@H](O)c3ccc(c(Cl)c3)Oc3cc2cc(c3O[C@@H]2O[C@H](CO)[C@@H](O)[C@H](O)[C@H]2O[C@H]2C[C@](C)(NCc3ccc(C(=O)OCCCCCCN(Cc4ccccn4)Cc4ccccn4)cc3)[C@H](O)[C@H](C)O2)Oc2ccc(cc2Cl)[C@H]1O` gave an IC50 of 1.2 ± 0.2 µM (Metallo-beta-lactamase type 2 (Serratia marcescens, UniProt P52699); enzyme activity, inhibitor, fluorescence).
For `COc1ccc(F)cc1S(=O)(=O)Nc1cnc2c(c1)C(=O)NCCO2`, the IC50 was over 100 µM (Cytochrome P450 2C8 (CYP2C8, Homo sapiens, UniProt P10632); enzyme activity, inhibitor; human, liver microsomes; with preincubation).
The IC50 of `COC(=O)C=CCCC(NC(=O)c1ccncc1C(=O)O)C(=O)NC(C(=O)N1CC(=O)CC1C(=O)NC(C(=O)NC(C(N)=O)C1CCCCC1)C1CCCCC1)C(C)(C)C` (centres unmarked) is reported as ~0.37 µM and 0.365 µM (Coagulation factor XIII A chain (Pig, UniProt K7GQL2); isopeptidase activity, inhibitor; pig enzyme, together with: substrate A101).
`Clc1cc2oc3cc(Cl)c(Cl)cc3c2cc1Cl` gave an IC50 of 0.00135 µM (Aryl hydrocarbon receptor (AHR, Delphinapterus leucas, UniProt Q95LD9); competitive binding, hydroxyapatite binding; pH 7.5, together with: 2 nM [3H]TCDD).

A few entries again:
For `NC(=O)c1cccc(CCN(CC[C@H](N)C(=O)O)C[C@H]2O[C@@H](n3cnc4c(N)ncnc43)[C@H](O)[C@@H]2O)c1`, the IC50 was 23 µM (Actin-histidine N-methyltransferase (SETD3, Homo sapiens, UniProt Q86TU7); enzyme activity, inhibitor, radiometric).
With `CC(C)C(=O)Nc1cccc(-c2nn[nH]n2)c1` the IC50 was over 100 µM (blaNDM-1 (Klebsiella pneumoniae, UniProt C7C422); enzyme activity, inhibitor, fluorescence; with preincubation).
The IC50 of `CC(=O)CCC1C(=O)NC(C(C)C)C(=O)NC(Cc2cc(O)cc(F)c2)C(=O)N2CCCC(N2)C(=O)OC(C(C)=CC=CC(=O)N2CCCCO2)CC=CC=CC(O)C(C)C1O` (centres unmarked) is reported as over 50 µM (ABCB1; P-glycoprotein transport, inhibitor; MDR1-MDCK; 60 min, pH 7.4, together with: loperamide 5 µM).
With `CSc1nc2[nH]nc([N+](=O)[O-])c(=O)n2n1` the IC50 was 72 µM (ABCB1; transport, inhibitor).
